Published values from different studies.
Parts stem from different laboratories: compare values within a part only. Changes are numbered by the printed parent chain.

Set 1 — technique: DHFR PCA, deep sequencing; sample: yeast; together with: (+)-ABA 0.0091 µM; reference: wild-type fitted maximum; reading: higher = stronger binding
Target: ABI1, truncated, D143A, DHFR fusion (Arabidopsis thaliana)
Setting: methotrexate growth selection, single substitutions
Starting sequence: PYL1, truncated, DHFR fusion (Arabidopsis thaliana); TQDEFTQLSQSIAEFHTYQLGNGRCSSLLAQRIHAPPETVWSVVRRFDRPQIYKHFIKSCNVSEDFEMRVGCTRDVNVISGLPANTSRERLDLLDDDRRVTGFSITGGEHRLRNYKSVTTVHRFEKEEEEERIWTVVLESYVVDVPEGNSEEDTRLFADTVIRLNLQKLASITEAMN
Substitution | relative binding score [%]
A170Y | -1.68
E130I | 6.54
F47P | 5.24
V76F | 5.69
Y115Q | -5.03
V142G | -2.58
V76P | -1.66
N61W | 13.6
E38V | 0.346

Set 2 — technique: RNA Bind-n-Seq; form: RNA; sample: in vitro; concentration: not given; setting: RNA with constant flanks, ends assumed; reference: input RNA pool; reading: higher = stronger binding
Target: RING finger protein unkempt homolog, zinc fingers 1-6, GST-SBP tag (UNK, Homo sapiens, UniProt Q9C0B0, residues 30-357)
UniProt Q9C0B0, sequence (30-357, looked up): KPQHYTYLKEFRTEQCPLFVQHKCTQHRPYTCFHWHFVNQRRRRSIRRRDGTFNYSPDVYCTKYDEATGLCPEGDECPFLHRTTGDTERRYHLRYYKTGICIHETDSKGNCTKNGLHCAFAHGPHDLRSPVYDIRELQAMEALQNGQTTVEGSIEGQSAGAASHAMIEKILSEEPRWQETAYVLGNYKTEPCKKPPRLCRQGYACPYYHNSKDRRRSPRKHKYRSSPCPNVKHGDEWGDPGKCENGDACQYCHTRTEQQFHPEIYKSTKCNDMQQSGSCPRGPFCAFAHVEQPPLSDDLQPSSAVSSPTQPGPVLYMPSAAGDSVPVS
All sequences stand within: GGGAGUUCUACAGUCCGACGAUC … CAACAGAGGAUUGAGCAUCA
Sequence | bound/input enrichment [ratio]
GAGAGCAAUUUUAACCUUACUCAUUAUGGAACUCAGCAAAUCCCUCCUGCUUACAAAGAUUCCGCUGAGCCAUGGAUUCAGGUGUUUGGAAUGGAACUCGUUGGCUGCUUAUUUUCUAGA | 0.278
AAAACUGAUUUAGAUAAUUCUAUAGGAAUUAAAAAAAUGAAAACCUCAUGUAAAUUUAAGACCGAUUCAAACAUAAGUCCGAAGAAGGAUAGCAAAGAAUUUACACAAAAAAAUAAGAAA | 1.78
CGCAUUUUGAUGGUUGGAUUGGAUGCUGCUGGCAAGACAACCAUUCUGUAUAAACUGAAGUCCGGGGAGAUAGUCACCACCAUUCCUACCAUUGGUUUUAAUGUGGAAACAGUAGAAUAU | 0.402
UAACGUUACAUAUCAUAGUGAAUGGUUUCCCCAGUGUAUAUGAAUGUUUUAAGUGUCUCCAACCGCUUAUGCAGUCUAGGAGCUUUCCAAUACUCAUUUAAUUAAGAUUUAAUCAUUUGC | 0.487
CAUAAAAACCAAACACUUCUCUAUAAUCUUUUUGACAUUUCUCAGUCUGCACAGACCCCAACCGCAGUUAUUGGUCUUACAUGUAGAUUGGAUAUUUUGGAACUCUUAGAAAAAAGAGUG | 0.66

Set 3 — technique: protein-binding microarray; form: double-stranded DNA, one strand shown; sample: in vitro; concentration: not given; reading: higher = stronger binding
Target: Cyclic AMP-responsive element-binding protein 1 (CREB1, Homo sapiens, UniProt P16220, residues 1-327, full length assumed)
UniProt P16220, sequence (whole entry, looked up): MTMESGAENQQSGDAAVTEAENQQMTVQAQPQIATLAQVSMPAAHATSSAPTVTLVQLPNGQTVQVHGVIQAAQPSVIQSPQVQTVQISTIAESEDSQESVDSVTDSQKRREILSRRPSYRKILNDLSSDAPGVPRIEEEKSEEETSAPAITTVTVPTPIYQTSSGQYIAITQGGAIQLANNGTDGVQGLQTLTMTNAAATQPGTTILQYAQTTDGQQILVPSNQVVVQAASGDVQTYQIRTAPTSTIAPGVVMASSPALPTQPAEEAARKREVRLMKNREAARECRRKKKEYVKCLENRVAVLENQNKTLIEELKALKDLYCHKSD
Setting: k-mer, scored over probes, only values ≥0.25
Sequence | E-score
CTATTAC | 0.304
TACGTGA | 0.269
AACGTAA | 0.333
ATCGTCA | 0.384
ACGTCAA | 0.377
ATATGAC | 0.306
CAAAACA | 0.266
GACGAAA | 0.267
GTCGTCA | 0.34
ATTACAA | 0.256

Single results of other studies
Substance | target | assay | system | setting | scale | measurement | value
PhoQ, residues 284 288 289 292 302 303 ALAMYF | PhoP, residues 12 14 15 18 19 VQGLL (Escherichia coli, UniProt P23836) | Sort-seq, measured: YFP reporter | E. coli | PhoQ-PhoP variant library, together with: 10 µM Mg2+ | reference: high Mg2+ state, higher = stronger signaling | fold induction | 4.5

Excerpt of the above (set 1):
Substitution | relative binding score [%]
V142G | -2.58
V76P | -1.66
N61W | 13.6
E38V | 0.346
